Measured values from different studies.
Protocols differ between the studies behind these lines.
Organism: Pseudomonas aeruginosa

SMILES | technique | strain | sample | time | temperature | setting | MIC
CCN1CCN(C(=O)N[C@@H](C(=O)N[C@@H]2C(=O)N3[C@@H]2SC(C)(C)[C@@H]3C(=O)O)c2ccccc2)C(=O)C1=O | – | PER-producing clinical isolate | – | – | – | – | > 128 µg/mL
N=C(N)c1ccc(OCc2cc(Br)cc(COc3ccc(C(=N)N)cc3)c2)cc1 | – | ATCC 27853 | – | – | – | compound alone | > 200 µg/mL
C[C@@H](O)[C@H]1C(=O)N2C(C(=O)O)=C(S[C@@H]3CN[C@H](C(=O)N(C)C)C3)[C@H](C)[C@H]12 | broth microdilution, MH medium | KCCM 11328 | – | 16 h | 37 °C | growth inhibition over 99% | 1 µM
c1ccc(OCCn2c(CNCC34CC5CC(CC(C5)C3)C4)nc3ccccc32)cc1 | – | ATCC 27853 | – | – | – | – | > 128 µg/mL
O=C(Cc1ccccc1)N[C@@H]1C(=O)N2C(C(=O)O)=C(CSc3cccc4cccnc34)C[S+]([O-])[C@H]12 (stereo partly shown) | – | – | – | – | – | – | > 128 µg/mL
CC1(C)S[C@@H]2[C@H](NC(=O)[C@H](N)c3ccccc3)C(=O)N2[C@H]1C(=O)O | – | ATCC BAA-2108, resistant | – | 18 h | 37 °C | LED light 10 min, 1.57 mW | > 128 µM
Cc1onc(-c2ccccc2)c1C(=O)N[C@@H]1C(=O)N2[C@@H]1SC(C)(C)[C@@H]2C(=O)O | – | CIP 27853 | Mueller Hinton broth | overnight | 37 °C | – | 16 µg/mL
Oc1c(Br)cc(Br)c2nc3ccccc3nc12 | – | – | – | – | – | – | > 100 µM
CC[C@H](C)CCCCC(=O)N[C@@H](CCN)C(=O)N[C@H](C(=O)N[C@@H](CCN)C(=O)N[C@H]1CCNC(=O)[C@H]([C@@H](C)O)NC(=O)[C@H](CCN)NC(=O)[C@H](CCN)NC(=O)[C@H](CC(C)C)NC(=O)[C@@H](CC(C)C)NC(=O)[C@H](CCN)NC1=O)[C@@H](C)O | broth microdilution | ATCC 10145 | cation-adjusted Mueller-Hinton broth | – | – | – | 0.855 µM
N=C(N)c1ccc(OCc2ccc(Br)cc2COc2ccc(C(=N)N)cc2)cc1 | – | ATCC 27853 | – | – | – | compound alone | 200 µg/mL
O=[N+]([O-])c1ccc2[nH]c(CNCC34CC5CC(CC(C5)C3)C4)nc2c1 | – | ATCC 27853 | – | – | – | – | > 128 µg/mL
NC[C@H]1O[C@H](O[C@H]2[C@H](O)[C@@H](O[C@H]3O[C@H](CO)[C@@H](O)[C@H](N)[C@H]3O)[C@H](N)C[C@@H]2N)[C@H](O)[C@@H](O)[C@@H]1O | broth microdilution | PA14 | – | – | – | – | 110 µM
CNC(C)C1CCC(N)C(OC2C(N)CC(N)C(OC3OCC(C)(O)C(NC)C3O)C2O)O1 (stereo not shown) | – | clinical isolate JMI 1045324 | – | – | – | – | 2 µg/mL
Cc1cc(C#N)ccc1C(=O)Nc1ccc(C(=O)N[C@@H](CC(N)=O)C(=O)Nc2ccc(C(=O)Nc3ccc(C(=O)Nc4ccc(C(=O)O)cc4)c(O)c3OC(C)C)cc2)cc1 | – | PA14 ΔmexAB | – | – | – | – | 2 µg/mL
CN(C)c1ccc2nc3ccc(=[N+](C)C)cc-3sc2c1 | – | ATCC 27853 | – | 18 h | 37 °C | dark | > 128 µM
CO/N=C(\C(=O)N[C@@H]1C(=O)N2C(C(=O)O)=C(COC(C)=O)CS[C@H]12)c1csc(N)n1 | – | CIP 27853 | Mueller Hinton broth | – | 37 °C | – | < 0.5 µg/mL
CCO/N=C(\C(=O)N[C@@H]1C(=O)N2C(C(=O)[O-])=C(Sc3nc(-c4cc[n+](C)cc4)cs3)CS[C@H]12)c1nsc(NP(=O)(O)O)n1 | broth microdilution | clinical isolate | Mueller-Hinton broth | 24 h | 37 °C | – | > 400 µM
O=C(Cc1ccccc1)N[C@@H]1C(=O)N2C(C(=O)O)=C(CSc3cccc4cccnc34)CS[C@H]12 | – | – | – | – | – | – | > 128 µg/mL
CC(C)(O/N=C(\C(=O)N[C@@H]1C(=O)N2C(C(=O)[O-])=C(C[n+]3ccccc3)CS[C@H]12)c1csc(N)n1)C(=O)O | – | PER-producing clinical isolate | – | – | – | – | > 128 µg/mL
C=C/C=C(\C)CC[C@H]1C[C@@H](O)CC(=O)O1 | broth microdilution | KCCM 11321 | – | 16 h | 37 °C | Mueller-Hinton broth | 64 µg/mL
N=C(N)c1ccc(OCc2cc(COc3ccc(C(=N)N)cc3)cc(-c3ccccc3)c2)cc1 | – | ATCC 27853 | – | – | – | compound alone | 100 µg/mL
Cn1cc(NC(=O)C(CC(N)=O)NC(=O)c2ccc(NC(=O)c3ccc(C#N)cc3)cc2)cc1-c1nc2ccc(C(=O)Nc3ccc(C(=O)O)cc3)c(O)c2[nH]1 (stereo not shown) | – | PA14 ΔmexAB | – | – | – | – | > 64 µg/mL
N=C(N)c1ccc(OCCCCCOc2ccc(C(=N)N)cc2)cc1 | – | ATCC 27853 | – | – | – | compound alone | > 200 µg/mL
CO[C@@H](C(N)=O)[C@H](NC(=O)c1ccc(NC(=O)c2ccc(C#N)cc2)cc1)C(=O)Nc1ccc(C(=O)Nc2ccc(C(=O)Nc3ccc(C(=O)O)cc3)c(O)c2OC(C)C)cc1 | – | PA14 ΔmexAB | – | – | – | – | < 0.03 µg/mL
CCN1CCN(C(=O)N[C@@H](C(=O)N[C@@H]2C(=O)N3[C@@H]2SC(C)(C)[C@@H]3C(=O)O)c2ccccc2)C(=O)C1=O | broth microdilution | clinical isolate | Mueller-Hinton broth | 24 h | 37 °C | – | > 400 µM
CC[C@H](C)[C@H](NC(=O)[C@H](CCC(=O)O)NC(=O)[C@H](CS)NC(=O)[C@@H](NC(=O)CNC(=O)[C@H](CO)NC(=O)[C@H](CC(C)C)NC(=O)[C@H](CO)NC(=O)[C@@H](N)CCC(=O)O)C(C)C)C(=O)N[C@@H](CO)C(=O)NCC(=O)N[C@@H](CCCNC(=N)N)C(=O)N[C@@H](CC(C)C)C(=O)N[C@@H](Cc1ccc(O)cc1)C(=O)N[C@@H](CCCNC(=N)N)C(=O)N[C@@H](CC(C)C)C(=O)N[C@@H](CS)C(=O)N[C@@H](CS)C(=O)N[C@@H](CCCNC(=N)N)C(=O)O | broth turbidity | ATCC 27853 | – | – | – | – | > 100 µM
NC[C@H]1O[C@H](O[C@H]2[C@H](O)[C@@H](O[C@H]3O[C@H](CO)[C@@H](O)[C@H](N)[C@H]3O)[C@H](N)C[C@@H]2N)[C@H](O)[C@@H](O)[C@@H]1O | broth microdilution | CICC 21625 | – | – | – | – | 85.8 µM
CNC(C)C1CCC(N)C(OC2C(N)CC(N)C(OC3OCC(C)(O)C(NC)C3O)C2O)O1 (stereo not shown) | – | clinical isolate P.A19 | RPMI with 10% FBS | – | 37 °C | – | 32 µM

Some of these lines once more:
SMILES | technique | strain | sample | time | temperature | setting | MIC
Cn1cc(NC(=O)C(CC(N)=O)NC(=O)c2ccc(NC(=O)c3ccc(C#N)cc3)cc2)cc1-c1nc2ccc(C(=O)Nc3ccc(C(=O)O)cc3)c(O)c2[nH]1 (stereo not shown) | – | PA14 ΔmexAB | – | – | – | – | > 64 µg/mL
N=C(N)c1ccc(OCCCCCOc2ccc(C(=N)N)cc2)cc1 | – | ATCC 27853 | – | – | – | compound alone | > 200 µg/mL
CO/N=C(\C(=O)N[C@@H]1C(=O)N2C(C(=O)O)=C(COC(C)=O)CS[C@H]12)c1csc(N)n1 | – | CIP 27853 | Mueller Hinton broth | – | 37 °C | – | < 0.5 µg/mL
C=C/C=C(\C)CC[C@H]1C[C@@H](O)CC(=O)O1 | broth microdilution | KCCM 11321 | – | 16 h | 37 °C | Mueller-Hinton broth | 64 µg/mL
